{"data": "Results pooled from the literature", "note": "Every numbered part comes from another study and shows a few of its results, in no order. Changes are numbered by the printed parent chain.", "chain of UniProt O43283 (whole entry, looked up)": "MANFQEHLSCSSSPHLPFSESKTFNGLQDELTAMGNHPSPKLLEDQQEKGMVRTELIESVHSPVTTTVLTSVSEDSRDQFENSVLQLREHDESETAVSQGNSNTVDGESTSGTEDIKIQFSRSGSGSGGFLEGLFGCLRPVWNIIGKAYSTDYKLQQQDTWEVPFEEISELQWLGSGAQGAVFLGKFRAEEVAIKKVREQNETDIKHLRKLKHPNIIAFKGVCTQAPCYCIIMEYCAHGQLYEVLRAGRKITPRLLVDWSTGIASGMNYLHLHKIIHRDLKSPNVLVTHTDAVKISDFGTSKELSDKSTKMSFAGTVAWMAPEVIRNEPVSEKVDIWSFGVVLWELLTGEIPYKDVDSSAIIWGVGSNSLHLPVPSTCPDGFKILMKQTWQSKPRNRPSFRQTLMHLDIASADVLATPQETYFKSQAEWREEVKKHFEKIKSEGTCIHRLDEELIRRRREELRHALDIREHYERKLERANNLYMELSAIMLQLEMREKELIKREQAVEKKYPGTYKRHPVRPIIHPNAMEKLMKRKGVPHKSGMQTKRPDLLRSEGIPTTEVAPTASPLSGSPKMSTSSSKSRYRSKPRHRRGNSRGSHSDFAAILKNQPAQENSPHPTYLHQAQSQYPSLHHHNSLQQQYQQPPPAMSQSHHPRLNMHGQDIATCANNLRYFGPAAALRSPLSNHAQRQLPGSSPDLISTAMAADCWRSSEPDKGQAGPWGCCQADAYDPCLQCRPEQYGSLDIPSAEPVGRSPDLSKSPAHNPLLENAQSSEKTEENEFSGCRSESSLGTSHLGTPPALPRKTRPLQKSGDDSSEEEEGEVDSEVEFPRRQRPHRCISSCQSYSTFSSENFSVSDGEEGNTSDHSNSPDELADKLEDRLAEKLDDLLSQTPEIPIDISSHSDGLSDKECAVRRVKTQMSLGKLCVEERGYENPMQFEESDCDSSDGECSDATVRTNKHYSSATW", "chain of UniProt Q9BVS4 (whole entry, looked up)": "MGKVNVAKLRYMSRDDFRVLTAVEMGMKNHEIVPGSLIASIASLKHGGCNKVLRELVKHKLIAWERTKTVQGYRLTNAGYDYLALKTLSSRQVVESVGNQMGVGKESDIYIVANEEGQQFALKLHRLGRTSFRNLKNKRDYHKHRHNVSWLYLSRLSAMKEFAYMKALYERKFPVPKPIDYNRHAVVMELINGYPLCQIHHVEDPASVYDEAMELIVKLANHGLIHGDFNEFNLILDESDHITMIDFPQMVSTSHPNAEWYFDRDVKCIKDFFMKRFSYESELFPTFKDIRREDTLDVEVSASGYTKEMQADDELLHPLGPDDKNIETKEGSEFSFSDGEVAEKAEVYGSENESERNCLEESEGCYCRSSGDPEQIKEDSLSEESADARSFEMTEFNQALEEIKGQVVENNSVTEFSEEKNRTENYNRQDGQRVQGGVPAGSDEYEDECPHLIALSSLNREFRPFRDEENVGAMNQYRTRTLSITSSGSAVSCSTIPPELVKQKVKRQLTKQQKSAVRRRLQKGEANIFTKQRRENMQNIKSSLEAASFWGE", "chain of UniProt Q16539 (whole entry, looked up)": "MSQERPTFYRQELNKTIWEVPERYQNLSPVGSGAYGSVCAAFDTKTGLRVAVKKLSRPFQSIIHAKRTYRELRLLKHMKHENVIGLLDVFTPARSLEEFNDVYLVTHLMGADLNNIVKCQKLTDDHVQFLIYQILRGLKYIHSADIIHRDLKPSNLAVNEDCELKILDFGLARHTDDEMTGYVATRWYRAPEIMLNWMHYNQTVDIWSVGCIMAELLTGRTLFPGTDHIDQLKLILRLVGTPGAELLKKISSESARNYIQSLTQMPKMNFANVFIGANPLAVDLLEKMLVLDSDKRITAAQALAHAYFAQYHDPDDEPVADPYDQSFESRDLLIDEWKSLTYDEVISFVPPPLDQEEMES", "chain of UniProt P07949 (whole entry, unmodified, looked up)": "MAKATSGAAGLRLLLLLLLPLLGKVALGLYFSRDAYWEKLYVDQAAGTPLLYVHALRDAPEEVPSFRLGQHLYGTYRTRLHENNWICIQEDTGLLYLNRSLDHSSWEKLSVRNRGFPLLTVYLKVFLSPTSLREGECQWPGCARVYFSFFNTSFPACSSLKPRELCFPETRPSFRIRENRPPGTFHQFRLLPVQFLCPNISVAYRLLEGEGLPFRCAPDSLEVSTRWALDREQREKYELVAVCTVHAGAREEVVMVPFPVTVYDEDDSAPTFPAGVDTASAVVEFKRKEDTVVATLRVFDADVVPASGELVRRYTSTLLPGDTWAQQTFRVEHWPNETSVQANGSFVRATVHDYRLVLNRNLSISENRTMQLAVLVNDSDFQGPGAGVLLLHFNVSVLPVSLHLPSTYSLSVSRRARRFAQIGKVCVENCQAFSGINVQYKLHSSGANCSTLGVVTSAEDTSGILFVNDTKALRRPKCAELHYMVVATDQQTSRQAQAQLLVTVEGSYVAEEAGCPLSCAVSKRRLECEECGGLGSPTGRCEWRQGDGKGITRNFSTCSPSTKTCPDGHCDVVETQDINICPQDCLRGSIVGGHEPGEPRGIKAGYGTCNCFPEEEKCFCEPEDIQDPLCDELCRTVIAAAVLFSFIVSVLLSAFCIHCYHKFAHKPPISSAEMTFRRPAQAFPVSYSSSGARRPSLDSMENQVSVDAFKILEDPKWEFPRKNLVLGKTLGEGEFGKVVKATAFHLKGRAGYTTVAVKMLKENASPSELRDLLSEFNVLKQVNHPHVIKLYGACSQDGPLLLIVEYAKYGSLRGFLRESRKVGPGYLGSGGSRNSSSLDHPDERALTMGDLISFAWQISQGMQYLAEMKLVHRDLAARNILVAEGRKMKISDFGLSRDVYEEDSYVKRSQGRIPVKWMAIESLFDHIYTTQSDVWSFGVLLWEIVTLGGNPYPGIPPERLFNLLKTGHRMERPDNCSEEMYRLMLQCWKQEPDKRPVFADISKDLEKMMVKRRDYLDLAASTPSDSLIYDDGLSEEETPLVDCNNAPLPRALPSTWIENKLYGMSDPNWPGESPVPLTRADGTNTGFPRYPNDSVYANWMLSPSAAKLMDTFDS", "chain of UniProt P53779 (whole entry, looked up)": "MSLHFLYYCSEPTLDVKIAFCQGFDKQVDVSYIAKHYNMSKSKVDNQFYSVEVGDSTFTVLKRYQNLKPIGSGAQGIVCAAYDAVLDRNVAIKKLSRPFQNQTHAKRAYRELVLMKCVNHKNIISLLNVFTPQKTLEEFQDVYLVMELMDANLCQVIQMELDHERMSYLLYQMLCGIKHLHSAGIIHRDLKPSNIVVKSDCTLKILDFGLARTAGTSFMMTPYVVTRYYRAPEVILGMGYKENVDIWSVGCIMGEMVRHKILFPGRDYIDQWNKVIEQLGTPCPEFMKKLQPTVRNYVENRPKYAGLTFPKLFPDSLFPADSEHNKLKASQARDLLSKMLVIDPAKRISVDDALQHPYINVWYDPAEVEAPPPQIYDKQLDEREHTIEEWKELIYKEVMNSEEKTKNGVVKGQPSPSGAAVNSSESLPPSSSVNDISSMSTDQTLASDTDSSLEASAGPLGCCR", "chain of UniProt P46734 (whole entry, looked up)": "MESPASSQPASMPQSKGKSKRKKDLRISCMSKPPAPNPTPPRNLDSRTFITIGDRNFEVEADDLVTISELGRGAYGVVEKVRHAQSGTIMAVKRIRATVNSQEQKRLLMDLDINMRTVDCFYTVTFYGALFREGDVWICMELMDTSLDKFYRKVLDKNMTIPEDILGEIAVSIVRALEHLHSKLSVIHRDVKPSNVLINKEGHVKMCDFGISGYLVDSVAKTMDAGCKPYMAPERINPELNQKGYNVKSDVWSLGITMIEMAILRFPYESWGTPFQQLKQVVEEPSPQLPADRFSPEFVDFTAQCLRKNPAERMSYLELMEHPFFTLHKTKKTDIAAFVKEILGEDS"}
{"data": "Block 1", "target": "Prothrombin, mature alpha-thrombin (F2, Homo sapiens, UniProt P00734)", "technique": "aptamer microarray, sandwich", "form": "DNA with 2'F-ANA", "matrix": "in vitro", "tested at": "200 nM", "notes": "whole 15-mer aptamer, many near background", "together with": "Cy3 exosite-II aptamer, 400 nM", "direction": "higher = stronger binding", "sequence": "GGTTGGTGTGGTTGG"}
{"Modification": "2'F-ANA at 3 4 5 8 11 12 13", "mean fluorescence intensity [a.u.]": 141}
{"Modification": "2'F-ANA at 4 6 7 8 10 11 12 14 15", "mean fluorescence intensity [a.u.]": 57.1}
{"Modification": "2'F-ANA at 2 3 5 7 8 10 11 12 13 14 15", "mean fluorescence intensity [a.u.]": 49.9}
{"Modification": "2'F-ANA at 1 4 7 8 11 12 13", "mean fluorescence intensity [a.u.]": 203}
{"Modification": "2'F-ANA at 1 6 7 9", "mean fluorescence intensity [a.u.]": 152}
{"Modification": "2'F-ANA at 3 5 9 10 11 14", "mean fluorescence intensity [a.u.]": 92.1}
{"Modification": "2'F-ANA at 1 5 6 7 8 13 15", "mean fluorescence intensity [a.u.]": 48.2}
{"Modification": "2'F-ANA at 1 3 4 7 9 13", "mean fluorescence intensity [a.u.]": 108}
{"data": "Block 2", "target": "DBP, bZIP domain (human)", "technique": "DHFR protein complementation", "matrix": "yeast", "notes": "single substitutions, most at no-binding floor", "reference": "wild-type JUN-FOS pair", "direction": "higher = stronger binding", "starting sequence": "JUN, bZIP domain (human); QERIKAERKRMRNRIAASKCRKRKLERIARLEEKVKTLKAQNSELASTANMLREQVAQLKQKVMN; partner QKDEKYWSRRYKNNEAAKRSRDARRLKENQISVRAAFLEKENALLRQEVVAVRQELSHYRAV"}
{"Change": "E33L", "binding fitness [natural log]": -1.39}
{"Change": "I28C", "binding fitness [natural log]": -1.5}
{"Change": "A49P", "binding fitness [natural log]": -1.32}
{"Change": "K36V", "binding fitness [natural log]": -1.51}
{"Change": "V56P", "binding fitness [natural log]": -1.44}
{"Change": "S43D", "binding fitness [natural log]": -1.06}
{"Change": "L45D", "binding fitness [natural log]": -1.52}
{"Change": "L45I", "binding fitness [natural log]": -1.35}
{"data": "Block 3", "Structure (SMILES)": "COc1cccc(CNC(=O)c2nc3scc(COCc4ccc(C(=O)O)cc4)c3c(=O)[nH]2)c1", "read-out": "cell-free assay", "technique": "competition with immobilised ligand", "tested at": "1 µM"}
{"target": "SIK3 (Homo sapiens, UniProt Q9Y2K2)", "remaining binding [%]": 63.5}
{"target": "RIOK2 (Homo sapiens, UniProt Q9BVS4)", "remaining binding [%]": 72.4}
{"target": "MAPK10 (Homo sapiens, UniProt P53779)", "remaining binding [%]": 76.6}
{"target": "MARK3 (Homo sapiens, UniProt P27448)", "remaining binding [%]": 100}
{"target": "MTOR (Homo sapiens, UniProt P42345)", "remaining binding [%]": 100}
{"target": "MST1R (Homo sapiens, UniProt Q04912)", "remaining binding [%]": 81.9}
{"target": "MAPK14 (Homo sapiens, UniProt Q16539)", "remaining binding [%]": 96.7}
{"target": "IRAK1 (Homo sapiens, UniProt P51617)", "remaining binding [%]": 75.6}
{"target": "MAP3K13 (Homo sapiens, UniProt O43283)", "remaining binding [%]": 61.5}
{"target": "MAP2K3 (Homo sapiens, UniProt P46734)", "remaining binding [%]": 92.9}
{"target": "PIM3 (Homo sapiens, UniProt Q86V86)", "remaining binding [%]": 100}
{"target": "MAPK12 (Homo sapiens, UniProt P53778)", "remaining binding [%]": 92.1}
{"target": "RET (Homo sapiens, UniProt P07949, V804L)", "remaining binding [%]": 76.7}
{"target": "CSK (Homo sapiens, UniProt P41240)", "remaining binding [%]": 100}
{"data": "Block 4", "target": "SRSF protein kinase 3 (SRPK3, Homo sapiens, UniProt Q9UPE1)", "read-out": "enzyme activity", "mode": "inhibitor", "tested at": "0.5 µM", "reference": "control", "chain of UniProt Q9UPE1 (whole entry, looked up)": "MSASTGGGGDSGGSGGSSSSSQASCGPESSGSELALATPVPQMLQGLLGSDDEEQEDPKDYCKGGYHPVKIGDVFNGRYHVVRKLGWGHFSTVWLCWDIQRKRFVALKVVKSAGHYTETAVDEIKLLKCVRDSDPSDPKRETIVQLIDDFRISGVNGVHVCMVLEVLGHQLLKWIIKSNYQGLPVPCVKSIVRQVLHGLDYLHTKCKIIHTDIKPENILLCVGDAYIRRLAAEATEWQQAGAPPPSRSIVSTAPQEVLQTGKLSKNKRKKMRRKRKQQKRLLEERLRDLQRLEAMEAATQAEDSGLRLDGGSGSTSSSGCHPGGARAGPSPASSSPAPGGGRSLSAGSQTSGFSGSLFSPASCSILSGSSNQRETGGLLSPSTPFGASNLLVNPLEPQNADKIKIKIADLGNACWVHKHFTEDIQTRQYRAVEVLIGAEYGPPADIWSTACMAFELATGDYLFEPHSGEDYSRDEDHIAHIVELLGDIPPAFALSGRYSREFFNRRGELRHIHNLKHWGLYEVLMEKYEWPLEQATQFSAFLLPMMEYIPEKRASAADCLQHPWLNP"}
{"Compound": "COc1ccc(OC)c2c(=S)c3ccccc3[nH]c12", "remaining activity": "96.8%"}
{"Compound": "COc1cc2ncnc(Nc3ccc(Oc4ccccc4)cc3)c2cc1OC", "remaining activity": "94.8%"}
{"Compound": "C#Cc1cccc(Nc2ncnc3cc(OCCOC)c(OCCOC)cc23)c1", "remaining activity": "101%"}
{"Compound": "Cc1ccc(NC(=O)c2ccc(CN3CCN(C)CC3)cc2)cc1Nc1nc(-c2cccnc2)cs1", "remaining activity": "102%"}
{"Compound": "N#CCCc1ccc2c(c1)-c1[nH]c3ccc([N+](=O)[O-])cc3c1CC(=O)N2", "remaining activity": "94.6%"}
{"Compound": "CO[C@H]1C[C@@H]2CC[C@@H](C)[C@@](O)(O2)C(=O)C(=O)N2CCCC[C@H]2C(=O)O[C@H]([C@H](C)C[C@@H]2CC[C@@H](O)[C@H](OC)C2)CC(=O)[C@H](C)/C=C(\\C)[C@@H](O)[C@@H](OC)C(=O)[C@H](C)C[C@H](C)/C=C/C=C/C=C/1C", "remaining activity": "97.2%"}
{"Compound": "O=c1c2ccccc2[nH]c(=S)n1CCN1CCC(=C(c2ccc(F)cc2)c2ccc(F)cc2)CC1", "remaining activity": "102%"}
{"Compound": "CNC(=O)c1cc(Oc2ccc(NC(=O)Nc3ccc(Cl)c(C(F)(F)F)c3)cc2)ccn1", "remaining activity": "88.4%"}
{"Compound": "COc1ccc(CNC(=O)Nc2ncc([N+](=O)[O-])s2)cc1", "remaining activity": "100%"}
{"Compound": "O=C(CCCc1ccc(-c2ccccc2F)cc1)Nc1ccc(O)cc1", "remaining activity": "93.7%"}
{"Compound": "Cc1cccc(-c2[nH]c(C(C)(C)C)nc2-c2ccc3c(c2)OCO3)n1", "remaining activity": "95.1%"}
{"Compound": "CN(C)c1ccc(C=C2C(=O)Nc3ccccc32)cc1", "remaining activity": "98.7%"}
{"note": "Repeated from above (block 4):"}
{"Compound": "COc1ccc(OC)c2c(=S)c3ccccc3[nH]c12", "remaining activity": "96.8%"}
{"Compound": "COc1cc2ncnc(Nc3ccc(Oc4ccccc4)cc3)c2cc1OC", "remaining activity": "94.8%"}
{"Compound": "C#Cc1cccc(Nc2ncnc3cc(OCCOC)c(OCCOC)cc23)c1", "remaining activity": "101%"}
{"Compound": "Cc1ccc(NC(=O)c2ccc(CN3CCN(C)CC3)cc2)cc1Nc1nc(-c2cccnc2)cs1", "remaining activity": "102%"}
{"Compound": "N#CCCc1ccc2c(c1)-c1[nH]c3ccc([N+](=O)[O-])cc3c1CC(=O)N2", "remaining activity": "94.6%"}
